Published values of several laboratories.
Compare with care: the assays were run in different laboratories. ± gives the spread as reported.
ABCB1: ATP-dependent translocase ABCB1 (ABCB1, Homo sapiens, UniProt P08183)
Sequence of UniProt P08183 (whole entry, looked up): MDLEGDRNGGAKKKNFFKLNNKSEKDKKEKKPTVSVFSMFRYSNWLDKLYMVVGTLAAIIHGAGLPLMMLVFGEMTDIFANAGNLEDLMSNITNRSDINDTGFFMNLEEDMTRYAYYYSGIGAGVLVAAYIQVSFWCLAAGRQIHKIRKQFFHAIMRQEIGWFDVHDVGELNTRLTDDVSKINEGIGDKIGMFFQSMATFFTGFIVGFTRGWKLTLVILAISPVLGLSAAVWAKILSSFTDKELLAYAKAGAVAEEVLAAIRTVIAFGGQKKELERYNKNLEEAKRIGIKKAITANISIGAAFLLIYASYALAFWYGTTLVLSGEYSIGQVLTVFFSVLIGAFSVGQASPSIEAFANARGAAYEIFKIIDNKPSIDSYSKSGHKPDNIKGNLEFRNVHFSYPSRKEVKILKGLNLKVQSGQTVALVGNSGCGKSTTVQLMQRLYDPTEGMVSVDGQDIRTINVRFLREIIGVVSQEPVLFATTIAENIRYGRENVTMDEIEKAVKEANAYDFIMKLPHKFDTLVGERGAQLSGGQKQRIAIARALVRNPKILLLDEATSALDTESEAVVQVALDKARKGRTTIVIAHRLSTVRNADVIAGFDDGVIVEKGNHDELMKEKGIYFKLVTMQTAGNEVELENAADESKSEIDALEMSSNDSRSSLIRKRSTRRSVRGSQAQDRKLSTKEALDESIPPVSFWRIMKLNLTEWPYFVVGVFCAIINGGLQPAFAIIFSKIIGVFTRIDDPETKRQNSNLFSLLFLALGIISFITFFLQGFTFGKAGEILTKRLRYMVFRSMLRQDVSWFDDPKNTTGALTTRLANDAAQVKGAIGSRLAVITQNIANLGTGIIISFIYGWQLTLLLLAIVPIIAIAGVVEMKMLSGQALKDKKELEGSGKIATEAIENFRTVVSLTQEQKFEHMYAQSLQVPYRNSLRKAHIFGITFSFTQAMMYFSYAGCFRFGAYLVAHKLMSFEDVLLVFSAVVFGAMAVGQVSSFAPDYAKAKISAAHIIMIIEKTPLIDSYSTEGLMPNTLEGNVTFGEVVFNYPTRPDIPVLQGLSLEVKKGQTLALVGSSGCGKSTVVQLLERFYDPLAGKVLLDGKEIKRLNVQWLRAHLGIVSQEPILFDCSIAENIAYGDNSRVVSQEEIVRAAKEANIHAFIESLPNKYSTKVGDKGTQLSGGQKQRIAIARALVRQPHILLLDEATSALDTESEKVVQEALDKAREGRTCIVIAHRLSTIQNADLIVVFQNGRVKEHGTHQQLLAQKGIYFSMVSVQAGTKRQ

For CCCCNC(=O)Nc1cc2nc(C3CCCCC3)[nH]c2cc1N(C)C, the IC50 was > 100 µg/mL (Vero; cytotoxicity, Alamar Blue; 3 days, 37 °C).
CC(C)(C)c1cc(C(C)(C)C)c(NC(=O)c2c[nH]c3ccccc3c2=O)cc1O has an intracellular accumulation of 18 to 34% (Calu-3; concentration not given, 4 h, basal to apical transport).
COc1cccc(C(=O)N2CCN(c3cc(-c4ccccc4)nc4cc(-c5cccc(Cl)c5)nn34)CC2)c1 gave an IC50 of 2.64 ± 0.64 µM (ABCB1; JC-1 efflux, inhibitor; Jurkat-DNR).
The Tmax of CCCC[C@H](NC(C)=O)C(=O)N[C@H]1CCC(=O)NC[C@@H](C(=O)N[C@@H](Cc2c[nH]c3ccccc23)C(N)=O)NC(=O)[C@H](CCCNC(=N)N)NC(=O)[C@@H](Cc2ccccc2)NC(=O)[C@H](Cc2c[nH]cn2)NC1=O is reported as 0.5 h (beagle dog, male, plasma; subcutaneous, 8.0 mg/kg daily, day 14).
For O=C(Cc1ccccc1)N1CCN(c2cc(-c3ccccc3)nc3cc(-c4cccc(Cl)c4)nn23)CC1, the IC50 was 4.68 ± 2.69 µM (ABCB1; JC-1 efflux, inhibitor; Jurkat-DNR).
C#C[C@]1(COP(=O)(O)OP(=O)(O)OP(=O)(O)O)O[C@@H](n2cnc3c(N)nc(F)nc32)C[C@@H]1O gave a half-life of 160 h (human PBMC tumour model; host not given, plasma; oral, 200 mg, single dose, fasted).
For CC[C@H](C)[C@H](NC(=O)[C@H](Cc1ccc(O)cc1)NC(=O)[C@@H](NC(=O)[C@@H](N)CCCN=C(N)N)C(C)C)C(=O)N[C@@H](Cc1c[nH]cn1)C(=O)N1CCC[C@H]1C(=O)N[C@@H](Cc1ccccc1)C(=O)O, the peptide hydrolysed was 87.1 ± 4.4% (trypsin; substrate, LC-MS; 20 µM, 4 h, pH 7.4, together with: Aβ1-28 10 µM, MINP(β1-14) and MINP(β15-28)).
O=C(c1ccoc1)N1CCN(c2cc(-c3cccc(F)c3)nc3cc(-c4ccccc4)nn23)CC1 has an IC50 of 7.07 µM (ABCB1; JC-1 efflux, inhibitor; Jurkat-DNR).
The IC50 of CCCOCC(=O)Nc1cc2nc(C3CCCCC3)[nH]c2cc1N(C)C is reported as < 50 µg/mL (Vero; cytotoxicity, Alamar Blue; 3 days, 37 °C).
CC(C)(C)c1cc(CCC(=O)OCC(COC(=O)CCc2cc(C(C)(C)C)c(O)c(C(C)(C)C)c2)(COC(=O)CCc2cc(C(C)(C)C)c(O)c(C(C)(C)C)c2)COC(=O)CCc2cc(C(C)(C)C)c(O)c(C(C)(C)C)c2)cc(C(C)(C)C)c1O: “concentration in serosal solution” 0.3 ± 0.2 µg/mL (Cyprinus carpio; everted gut sac; intestine; concentration not given, 24 h, 23 °C).
With Cc1cc(N2CCN(C(=O)c3ccco3)CC2)n2nc(-c3cccc(Cl)c3)cc2n1 the IC50 was 5.88 ± 1.17 µM (ABCB1; JC-1 efflux, inhibitor; Jurkat-DNR).
COc1ccc(CC(=O)Nc2cc3nc(C4CCCCC4)[nH]c3cc2N(C)C)cc1 has an IC50 of > 100 µg/mL (Vero; cytotoxicity, Alamar Blue; 3 days, 37 °C).
O=C(c1ccoc1)N1CCN(c2cc(-c3ccoc3)nc3cc(-c4ccccc4)nn23)CC1 gave an IC50 of 1.6 µM (ABCB1; JC-1 efflux, inhibitor; Jurkat-DNR).
COC(=O)N[C@H](C(=O)N1CCC[C@H]1c1nc(-c2ccc(-c3ccc(-c4c[nH]c([C@@H]5CCCN5C(=O)[C@@H](NC(=O)OC)C(C)C)n4)cc3)cc2)c[nH]1)C(C)C has an efflux ratio of 3.7 (Caco-2 monolayer; together with: efflux inhibitor cocktail; B-A over A-B).
The IC50 of CN(C)c1cc2[nH]c(C3CCCCC3)nc2cc1NC(=O)c1ccc(F)cc1 is reported as > 100 µg/mL (Vero; cytotoxicity, Alamar Blue; 3 days, 37 °C).
c1ccc2c(c1)ccc1ccccc12 — result for “concentration in serosal solution”: 3550 ± 639 µg/mL (Cyprinus carpio; everted gut sac; intestine; concentration not given, 24 h, 23 °C).
With COc1ccc(C(=O)Nc2cc3nc(C4CCCCC4)[nH]c3cc2N(C)C)cc1 the IC50 was > 100 µg/mL (Vero; cytotoxicity, Alamar Blue; 3 days, 37 °C).
c1ccc(N(c2ccccc2)c2ccc(-c3ccc(N(c4ccccc4)c4ccc(-c5ccc(N(c6ccccc6)c6ccc(-c7ccc(N(c8ccccc8)c8ccccc8)cc7)cc6)cc5)cc4)cc3)cc2)cc1 — result for “concentration in serosal solution”: < 0.1 µg/mL (Cyprinus carpio; everted gut sac; intestine; concentration not given, 24 h, 23 °C).
For CC(C)(C)c1cc(N2CCN(C(=O)c3ccoc3)CC2)n2nc(-c3ccccc3)cc2n1, the IC50 was 5.62 µM (ABCB1; JC-1 efflux, inhibitor; Jurkat-DNR).
The IC50 of CCN(CC)c1cc2[nH]c(C3CCCCC3)nc2cc1NC(=O)NCc1ccccc1 is reported as > 100 µg/mL (Vero; cytotoxicity, Alamar Blue; 3 days, 37 °C).
The IC50 of O=C(c1ccccc1)N1CCN(c2cc(-c3ccccc3)nc3cc(-c4ccc(F)cc4)nn23)CC1 is reported as 3.99 ± 2.31 µM (ABCB1; JC-1 efflux, inhibitor; Jurkat-DNR).
CCN(CC)c1cc2[nH]c(C3CCCCC3)nc2cc1NC(=O)c1ccc(F)cc1 gave an IC50 of > 100 µg/mL (Vero; cytotoxicity, Alamar Blue; 3 days, 37 °C).

Some of these lines once more:
O=C(c1ccoc1)N1CCN(c2cc(-c3ccoc3)nc3cc(-c4ccccc4)nn23)CC1 gave an IC50 of 1.6 µM (ABCB1; JC-1 efflux, inhibitor; Jurkat-DNR).
COC(=O)N[C@H](C(=O)N1CCC[C@H]1c1nc(-c2ccc(-c3ccc(-c4c[nH]c([C@@H]5CCCN5C(=O)[C@@H](NC(=O)OC)C(C)C)n4)cc3)cc2)c[nH]1)C(C)C has an efflux ratio of 3.7 (Caco-2 monolayer; together with: efflux inhibitor cocktail; B-A over A-B).
The IC50 of CN(C)c1cc2[nH]c(C3CCCCC3)nc2cc1NC(=O)c1ccc(F)cc1 is reported as > 100 µg/mL (Vero; cytotoxicity, Alamar Blue; 3 days, 37 °C).
